Measurements pooled from the literature.
Every numbered part comes from another study and shows a few of its results, in no order.

Sample 1 — technique: protein binding microarray; molecule type: double-stranded DNA, one strand shown; medium: in vitro; concentration: not given; baseline: not given; reading: higher = stronger binding
Target: Histone acetyltransferase KAT6A, both winged helices, GST fusion (KAT6A, Homo sapiens, UniProt Q92794, residues 1-181)
Setting: 8-mer, flanks averaged, mean of 2 arrays, mostly near background
Construct (chain): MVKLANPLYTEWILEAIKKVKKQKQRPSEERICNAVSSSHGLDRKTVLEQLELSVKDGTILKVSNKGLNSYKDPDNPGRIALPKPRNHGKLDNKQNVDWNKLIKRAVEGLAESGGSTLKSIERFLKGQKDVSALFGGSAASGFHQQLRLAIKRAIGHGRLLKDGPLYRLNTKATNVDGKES
`CTAAACTC` gave an E-score of -0.117.
The E-score of `ATCGGGCA` is reported as 0.0313.
The E-score of `AAGTACAC` is reported as -0.119.
For `CGTTACGC`, the E-score was 0.278.
`GCGAGGTA` gave an E-score of 0.0825.
`ATACGTTA` has an E-score of 0.0032.
For `CACGATGC`, the E-score was 0.0329.
For `GCGGTTGA`, the E-score was 0.221.

Sample 2 — cell line: HEK-293T; observed: pseudovirus infection; technique: FDA-approved drug library screen; organism: VSV pseudotyped with SARS-CoV-2 spike; concentration: 10 µM; time: 16 h; baseline: vehicle-treated
The GFP-positive cells of CC(C)OC(=O)CCC/C=C\C[C@@H]1[C@@H](CC[C@@H](O)CCc2ccccc2)[C@H](O)C[C@@H]1O is reported as 121%.
With O=C(O)CCCCCCCC(=O)O the GFP-positive cells was 87.3%.
CC(C)(C#N)c1cc(Cn2cncn2)cc(C(C)(C)C#N)c1 has a GFP-positive cells of 106%.
With CN(C)CCOC(C)(c1ccccc1)c1ccccn1 (stereo not shown) the GFP-positive cells was 103%.

Sample 3 — observed: enzyme activity; action: inhibitor; concentration: 20 µM
Target: Replicase polyprotein 1ab, polymerase (rep, Severe acute respiratory syndrome coronavirus 2, UniProt P0DTD1)
For CCCCCCCCCCCCCC[C@@H](O)[C@@H](O)[C@@H](N)CO, the inhibition was 20.4%.
The inhibition of CN(C)Cc1cccc(N/C(=C2\C(=O)Nc3cc(C(N)=O)ccc32)c2ccccc2)c1 is reported as 2%.
Cc1[nH]c(/C=C2\C(=O)Nc3ccccc32)c(C)c1CCC(=O)O has an inhibition of 7.94%.
CC(C)NC(=O)N1CC[C@H](NC2=Nc3cc(F)ccc3N(CC(F)F)c3ccc(Cl)cc32)C1 has an inhibition of -1.49%.
With CC(C)Oc1ccc(-c2nc(-c3cccc4c3CC[C@@H]4NCCO)no2)cc1C#N the inhibition was -10.3%.
The inhibition of Cc1c(C(=O)NN2CCCCC2)nn(-c2ccc(Cl)cc2Cl)c1-c1ccc(Cl)cc1 is reported as 2.94%.
With CNCCn1c(=O)c2cc(OC)c(OC)cc2c2cnc3cc4c(cc3c21)OCO4 the inhibition was -4.44%.
For COc1ccc2cc(C(C)C(=O)Oc3ccc(C(N)=S)cc3)ccc2c1 (stereo not shown), the inhibition was 2.27%.
CCN1C(=O)CNc2ncc(-c3ccc(-c4nc[nH]n4)nc3C)nc21 has an inhibition of 1.51%.
With CC(=O)O[C@]1(C(C)=O)CC[C@H]2[C@@H]3C=C(Cl)C4=CC(=O)[C@@H]5C[C@@H]5[C@]4(C)[C@H]3CC[C@@]21C the inhibition was 5.86%.
O[C@H]1CC[C@H](Nc2nc(-c3ccccc3)nc3[nH]ccc23)CC1 gave an inhibition of -2.72%.
CCCCN1CCCC1CNC(=O)c1cc(C#N)c2ccccc2c1OC (stereo not shown) has an inhibition of -4%.
O=c1[nH]c2ccc(Cl)cc2c(N[C@@H]2CN3CCC2CC3)c1-c1nc2ccccc2[nH]1 has an inhibition of 2.63%.
CC(=O)OC[C@H]1O[C@@H](n2ccc(=O)[nH]c2=O)[C@H](OC(C)=O)[C@@H]1OC(C)=O has an inhibition of 2.86%.
With C=CCSCC1Nc2cc(Cl)c(S(N)(=O)=O)cc2S(=O)(=O)N1 (stereo not shown) the inhibition was 0.93%.
With CCOC(=O)[C@H]1O[C@@H]1C(=O)N[C@@H](CC(C)C)C(=O)NCCC(C)C the inhibition was 11.1%.
For N#C/C(=C1/SCC(c2ccccc2Cl)S1)n1ccnc1 (stereo not shown), the inhibition was 3.92%.
The inhibition of O=c1c2ccccc2nc2n1CCCCC2 is reported as -0.75%.
Nc1nccc(-c2c(-c3ccc(F)cc3)ncn2C2CCCCC2)n1 has an inhibition of 0.06%.
CCc1nc(C(N)=O)c(Nc2ccc(N3CCC(N4CCN(C)CC4)CC3)c(OC)c2)nc1NC1CCOCC1 gave an inhibition of 0.43%.

Sample 4 — observed: enzyme activity; action: inhibitor; concentration: 20 µM; setting: hit confirmation
Target: Replicase polyprotein 1ab, main protease (rep, Severe acute respiratory syndrome coronavirus 2, UniProt P0DTD1)
CCC[C@H](NC(=O)/C(C#N)=C/c1cccc(Br)n1)c1ccccc1 gave an inhibition of 59.4%.
C/C(=N\NC(=N)N)c1cc(NC(=O)CCCCCCCCC(=O)Nc2cc(/C(C)=N/NC(=N)N)cc(/C(C)=N/NC(=N)N)c2)cc(/C(C)=N/NC(=N)N)c1 has an inhibition of 13.7%.
For COC(=O)/C=C/c1cc(O)ccc1O, the inhibition was 52.7%.

Sample 5 — technique: universal PBM; molecule type: double-stranded DNA, one strand shown; medium: in vitro; concentration: not given; reading: higher = stronger binding
Target: Sal-like protein 4, full length isoform B (SALL4, Homo sapiens, UniProt Q9UJQ4-2, residues 1-616)
Setting: 8-mer, flanks averaged, mean of replicates
`ACCCGCTC` has an E-score of -0.276.
With `CCAACCAA` the E-score was -0.16.
`ACTATTAG` has an E-score of 0.0798.
The E-score of `CAATGGAG` is reported as -0.0216.
The E-score of `CCATTAAG` is reported as 0.0822.
The E-score of `AACCTACA` is reported as 0.154.
With `TCCCACCA` the E-score was -0.213.
For `CGAAACTA`, the E-score was 0.111.

For quick reference, copied from above (sample 1):
The E-score of `AAGTACAC` is reported as -0.119.
`CTAAACTC` gave an E-score of -0.117.
For `CGTTACGC`, the E-score was 0.278.
The E-score of `ATCGGGCA` is reported as 0.0313.
